Assay results collected from several papers.
Compare with care: the assays were run in different laboratories. Numbers after ± are the reported error.
CA1: Carbonic anhydrase 1 (CA1, Homo sapiens, UniProt P00915)
UniProt P00915, sequence (whole entry, looked up): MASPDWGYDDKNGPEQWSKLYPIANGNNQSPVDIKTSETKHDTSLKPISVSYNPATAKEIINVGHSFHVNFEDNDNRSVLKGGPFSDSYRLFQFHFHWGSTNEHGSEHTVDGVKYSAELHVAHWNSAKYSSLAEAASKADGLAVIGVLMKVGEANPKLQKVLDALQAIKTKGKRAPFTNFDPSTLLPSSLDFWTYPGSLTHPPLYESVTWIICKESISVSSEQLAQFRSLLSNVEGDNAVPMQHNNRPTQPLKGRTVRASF
Mapk1: Mitogen-activated protein kinase 1 (Mapk1, Rattus norvegicus, UniProt P63086)
UniProt P63086, sequence (whole entry, looked up): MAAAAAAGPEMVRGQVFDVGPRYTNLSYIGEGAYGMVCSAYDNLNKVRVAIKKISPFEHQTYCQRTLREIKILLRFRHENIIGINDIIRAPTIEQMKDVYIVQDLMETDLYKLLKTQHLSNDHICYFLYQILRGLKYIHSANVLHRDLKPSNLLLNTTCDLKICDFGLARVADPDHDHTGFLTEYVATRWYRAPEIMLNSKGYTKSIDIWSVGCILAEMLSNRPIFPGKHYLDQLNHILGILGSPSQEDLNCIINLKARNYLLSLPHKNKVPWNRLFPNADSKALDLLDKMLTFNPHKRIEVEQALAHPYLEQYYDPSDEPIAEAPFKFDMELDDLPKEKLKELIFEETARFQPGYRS
AR: Androgen receptor (AR, Homo sapiens, UniProt P10275)
UniProt P10275, sequence (whole entry, looked up): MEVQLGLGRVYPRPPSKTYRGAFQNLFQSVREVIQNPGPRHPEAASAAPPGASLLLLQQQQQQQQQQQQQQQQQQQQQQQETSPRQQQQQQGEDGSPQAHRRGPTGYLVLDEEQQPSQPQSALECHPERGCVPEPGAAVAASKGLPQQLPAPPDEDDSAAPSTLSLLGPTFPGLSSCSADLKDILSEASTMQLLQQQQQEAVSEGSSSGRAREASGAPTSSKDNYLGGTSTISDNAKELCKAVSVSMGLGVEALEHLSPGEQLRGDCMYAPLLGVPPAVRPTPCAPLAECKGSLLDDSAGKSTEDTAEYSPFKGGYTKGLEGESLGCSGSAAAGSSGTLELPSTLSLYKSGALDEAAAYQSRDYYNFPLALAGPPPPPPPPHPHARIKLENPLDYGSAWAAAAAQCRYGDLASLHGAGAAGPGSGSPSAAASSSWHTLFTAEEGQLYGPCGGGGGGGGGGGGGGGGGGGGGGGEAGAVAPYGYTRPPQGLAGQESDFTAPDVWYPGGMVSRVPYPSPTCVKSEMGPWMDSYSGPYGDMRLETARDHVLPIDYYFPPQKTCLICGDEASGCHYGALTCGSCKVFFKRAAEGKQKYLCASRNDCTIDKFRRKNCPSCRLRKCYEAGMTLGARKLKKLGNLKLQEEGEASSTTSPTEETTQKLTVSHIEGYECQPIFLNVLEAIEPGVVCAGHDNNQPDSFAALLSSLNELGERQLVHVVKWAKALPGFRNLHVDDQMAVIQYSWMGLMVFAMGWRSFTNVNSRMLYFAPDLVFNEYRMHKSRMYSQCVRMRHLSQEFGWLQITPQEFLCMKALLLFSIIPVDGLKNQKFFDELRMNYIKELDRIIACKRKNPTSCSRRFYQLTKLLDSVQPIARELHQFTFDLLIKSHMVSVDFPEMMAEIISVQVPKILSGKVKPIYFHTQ
BCHE: Cholinesterase (BCHE, Homo sapiens, UniProt P06276)
UniProt P06276, sequence (whole entry, looked up): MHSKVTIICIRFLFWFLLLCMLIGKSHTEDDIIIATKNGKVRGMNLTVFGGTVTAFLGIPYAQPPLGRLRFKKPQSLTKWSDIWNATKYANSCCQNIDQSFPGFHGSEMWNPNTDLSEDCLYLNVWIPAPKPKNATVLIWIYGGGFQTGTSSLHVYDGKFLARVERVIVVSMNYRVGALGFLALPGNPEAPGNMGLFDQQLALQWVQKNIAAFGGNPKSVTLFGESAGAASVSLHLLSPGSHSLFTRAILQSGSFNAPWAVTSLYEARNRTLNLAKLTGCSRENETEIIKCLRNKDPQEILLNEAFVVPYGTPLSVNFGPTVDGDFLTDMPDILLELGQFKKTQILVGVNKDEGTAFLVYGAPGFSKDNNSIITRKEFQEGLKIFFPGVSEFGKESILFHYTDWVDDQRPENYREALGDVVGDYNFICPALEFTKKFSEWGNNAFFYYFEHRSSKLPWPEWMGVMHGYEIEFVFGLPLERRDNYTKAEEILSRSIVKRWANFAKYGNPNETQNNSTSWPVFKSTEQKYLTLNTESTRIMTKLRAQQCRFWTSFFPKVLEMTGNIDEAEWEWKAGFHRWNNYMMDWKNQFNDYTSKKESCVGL
DRD3: D(3) dopamine receptor (DRD3, Homo sapiens, UniProt P35462)
UniProt P35462, sequence (whole entry, looked up): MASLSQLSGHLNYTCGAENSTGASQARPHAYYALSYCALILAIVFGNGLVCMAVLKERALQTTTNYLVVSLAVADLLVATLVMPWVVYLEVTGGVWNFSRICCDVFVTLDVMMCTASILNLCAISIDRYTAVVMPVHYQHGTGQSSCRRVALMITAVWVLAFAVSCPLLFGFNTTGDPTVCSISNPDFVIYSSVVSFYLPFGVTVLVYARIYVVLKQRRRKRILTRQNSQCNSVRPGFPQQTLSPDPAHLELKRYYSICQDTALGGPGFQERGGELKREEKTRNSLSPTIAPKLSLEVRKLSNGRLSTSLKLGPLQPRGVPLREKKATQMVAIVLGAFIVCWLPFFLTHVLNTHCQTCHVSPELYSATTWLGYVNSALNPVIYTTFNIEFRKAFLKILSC
UniProt P00784, sequence (whole entry, looked up): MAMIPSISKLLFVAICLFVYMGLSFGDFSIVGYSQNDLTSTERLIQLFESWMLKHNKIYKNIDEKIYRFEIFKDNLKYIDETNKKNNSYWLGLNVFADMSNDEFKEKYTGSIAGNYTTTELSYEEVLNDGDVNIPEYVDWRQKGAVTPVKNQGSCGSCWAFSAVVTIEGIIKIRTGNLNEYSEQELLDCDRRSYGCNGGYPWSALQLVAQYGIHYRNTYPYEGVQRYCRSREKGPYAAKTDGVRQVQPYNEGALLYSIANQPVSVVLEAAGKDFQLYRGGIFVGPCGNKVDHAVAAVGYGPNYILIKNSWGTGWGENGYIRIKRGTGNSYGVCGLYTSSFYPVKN
UniProt O15393, sequence (whole entry, looked up): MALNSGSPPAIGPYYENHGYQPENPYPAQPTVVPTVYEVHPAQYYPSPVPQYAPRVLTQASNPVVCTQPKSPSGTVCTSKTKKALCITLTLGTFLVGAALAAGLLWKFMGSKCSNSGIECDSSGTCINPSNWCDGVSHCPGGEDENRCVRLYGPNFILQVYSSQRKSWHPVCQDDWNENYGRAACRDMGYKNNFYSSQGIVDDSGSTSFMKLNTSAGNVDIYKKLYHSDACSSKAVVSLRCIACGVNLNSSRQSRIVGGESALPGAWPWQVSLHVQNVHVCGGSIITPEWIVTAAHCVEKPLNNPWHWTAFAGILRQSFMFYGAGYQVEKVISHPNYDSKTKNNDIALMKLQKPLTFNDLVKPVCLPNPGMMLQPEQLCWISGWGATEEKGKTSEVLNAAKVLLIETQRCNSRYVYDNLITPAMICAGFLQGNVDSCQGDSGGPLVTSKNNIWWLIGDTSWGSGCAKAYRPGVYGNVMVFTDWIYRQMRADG
UniProt P20273, sequence (whole entry, looked up): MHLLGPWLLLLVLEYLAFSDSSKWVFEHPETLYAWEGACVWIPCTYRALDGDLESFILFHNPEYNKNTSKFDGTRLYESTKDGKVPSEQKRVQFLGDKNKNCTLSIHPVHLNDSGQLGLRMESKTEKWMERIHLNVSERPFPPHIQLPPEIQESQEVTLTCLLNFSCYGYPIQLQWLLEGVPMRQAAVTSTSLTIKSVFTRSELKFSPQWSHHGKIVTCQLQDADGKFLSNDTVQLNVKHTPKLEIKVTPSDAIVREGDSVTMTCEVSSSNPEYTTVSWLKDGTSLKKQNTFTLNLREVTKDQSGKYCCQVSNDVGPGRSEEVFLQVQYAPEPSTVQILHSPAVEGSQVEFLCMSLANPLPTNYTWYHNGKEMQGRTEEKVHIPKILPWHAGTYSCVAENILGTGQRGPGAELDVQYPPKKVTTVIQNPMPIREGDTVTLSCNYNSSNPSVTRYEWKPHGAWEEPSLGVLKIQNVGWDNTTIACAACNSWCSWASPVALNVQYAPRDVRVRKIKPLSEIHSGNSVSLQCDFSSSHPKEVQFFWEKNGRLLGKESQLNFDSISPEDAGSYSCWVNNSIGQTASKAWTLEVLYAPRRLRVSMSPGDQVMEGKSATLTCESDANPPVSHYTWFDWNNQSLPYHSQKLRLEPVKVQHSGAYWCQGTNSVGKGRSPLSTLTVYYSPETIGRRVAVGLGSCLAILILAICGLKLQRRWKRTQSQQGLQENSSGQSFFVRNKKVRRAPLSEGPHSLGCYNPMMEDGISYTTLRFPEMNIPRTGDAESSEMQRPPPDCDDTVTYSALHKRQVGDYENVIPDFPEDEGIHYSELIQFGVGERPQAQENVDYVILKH
UniProt P23977, sequence (whole entry, looked up): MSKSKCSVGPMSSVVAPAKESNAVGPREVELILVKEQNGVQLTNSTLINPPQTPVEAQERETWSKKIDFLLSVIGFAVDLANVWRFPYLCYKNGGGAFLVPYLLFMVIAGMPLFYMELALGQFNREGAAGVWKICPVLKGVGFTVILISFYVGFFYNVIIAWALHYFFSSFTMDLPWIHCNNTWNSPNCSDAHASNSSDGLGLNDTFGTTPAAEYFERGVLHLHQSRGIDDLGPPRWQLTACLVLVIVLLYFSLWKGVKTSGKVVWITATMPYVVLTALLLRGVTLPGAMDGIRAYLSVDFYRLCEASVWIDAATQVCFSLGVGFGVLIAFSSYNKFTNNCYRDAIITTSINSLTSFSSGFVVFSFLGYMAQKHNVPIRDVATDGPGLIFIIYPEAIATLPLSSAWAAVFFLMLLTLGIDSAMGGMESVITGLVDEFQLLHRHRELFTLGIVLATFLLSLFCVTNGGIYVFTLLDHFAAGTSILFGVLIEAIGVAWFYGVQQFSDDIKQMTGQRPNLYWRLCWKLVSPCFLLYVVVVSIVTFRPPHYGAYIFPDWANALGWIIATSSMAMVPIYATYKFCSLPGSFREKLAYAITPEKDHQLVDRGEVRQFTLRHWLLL

SMILES	tested on	test	test system	conditions	endpoint	result
CNC(=O)C[C@H](Cc1ccc(F)cc1)NC(=O)[C@@H](Cc1ccc(Cl)cc1Cl)NC(=O)[C@H](N)Cc1ccccc1C#N	Transmembrane protease serine 2 (TMPRSS2, Homo sapiens, UniProt O15393)	enzyme activity, inhibitor	–	–	IC50	> 10 µM
O=S(=O)(N/N=C/c1ccc(OS(=O)(=O)c2ccccc2)cc1)c1ccc(Cl)cc1	CA1	enzyme activity, inhibitor, absorbance	–	–	IC50	0.179 µM
CC[C@H](C)[C@H](NC(=O)[C@@H](NC(=O)[C@H](CC(C)C)NC(=O)[C@H](C)NC(=O)[C@@H]1CCCN1C(=O)[C@H](CC(C)C)NC(=O)[C@@H](NC(=O)[C@@H]1CCCN1C(=O)[C@H](CCCCN)NC(=O)[C@H](CCCNC(=N)N)NC(=O)[C@H](CCCNC(=N)N)NC(=O)[C@H](C)NC(=O)[C@H](C)NC(=O)[C@@H](N)Cc1ccc(O)cc1)C(C)C)[C@@H](C)O)C(=O)N[C@@H](CC(N)=O)C(=O)N1CCC[C@H]1C(=O)O	Mapk1	enzyme activity, inhibitor, fluorescence	–	pH 7.4	IC50	27 µM
C[C@@]12CC[C@@H]3[C@H](CC[C@@H]4C[C@@H](O)CC[C@]43C)[C@H]1CC(=O)C2	AR	nuclear translocation, antagonist	–	–	IC50	4.27 µM
Cc1nc2ccc(-c3ccc(OC(F)(F)F)cc3)cc2c(O)c1C#N	Dihydroorotate dehydrogenase (quinone), mitochondrial (PFF0160c, Plasmodium falciparum, UniProt Q08210)	enzyme activity, inhibitor, absorbance	–	–	IC50	2.53 µM
COc1cc(C[C@H](C)[C@H](C)Cc2ccc3c(c2)OCO3)ccc1O	BCHE	enzyme activity, inhibitor, Ellman	–	–	IC50	> 100 µM
O=C(CCc1ccc(Br)cc1)N[C@H]1CCOC1=O	Transcriptional activator protein LasR (lasR, Pseudomonas aeruginosa, UniProt P25084)	reporter gene, antagonist	Escherichia coli, JLD271 with LasR plasmid	with: OdDHL 10 nM	IC50	0.74 µM
O=S(=O)(N/N=C/c1ccc(OS(=O)(=O)c2cc(Cl)ccc2Cl)cc1)c1ccc(Cl)cc1	CA1	enzyme activity, inhibitor, absorbance	–	–	IC50	0.222 µM
Cc1ccc(NS(=O)(=O)c2c(C)[nH]c(C)c2C(=O)N2CCCC2)cc1	DRD3	β-arrestin recruitment, antagonist	–	–	IC50	38 µM
CC[C@H](C)[C@H](NC(=O)[C@H](Cc1ccccc1)NC(=O)[C@H](CC(C)C)NC(=O)[C@@H]1CCCN1C(=O)[C@H](CCC(=O)O)NC(=O)[C@@H]1CCCN1C(=O)[C@H](CCCNC(=N)N)NC(=O)[C@H](Cc1c[nH]cn1)NC(=O)[C@H](CCCNC(=N)N)NC(=O)[C@H](Cc1ccccc1)NC(=O)[C@H](CCCCN)NC(=O)[C@H](CCCCN)NC(=O)[C@H](C)NC(=O)[C@@H](N)Cc1ccc(O)cc1)C(=O)N1CCC[C@H]1C(=O)N1CCC[C@H]1C(=O)O	Mapk1	enzyme activity, inhibitor, fluorescence	–	pH 7.4	IC50	5.27 µM
C/C(=N\OCCCN1CCCCC1)c1ccc(C(F)(F)F)cc1	Muscarinic acetylcholine receptor M2 (CHRM2, Homo sapiens, UniProt P08172)	inositol phosphate, antagonist	–	–	IC50	1.05 µM
O=S(=O)(F)c1cccc(S(=O)(=O)Nc2cc(F)c(C3CC3)cc2Cl)c1	GTPase KRas, with RAF (KRAS, Homo sapiens, UniProt P01116)	RAF-KRAS interaction, inhibitor, NanoBRET	HEK293T	24 h	IC50	37 ± 8 µM
CC(C)C[C@H](NC(=O)[C@H](CO)NC(=O)[C@H](CC(C)C)NC(=O)[C@H](CCCCN)NC(=O)[C@@H]1CCCN1C(=O)[C@H](CCCCN)NC(=O)[C@H](CCCCN)NC(=O)[C@H](CCCCN)NC(=O)[C@H](CCCNC(=N)N)NC(=O)[C@H](CO)NC(=O)[C@H](CS)NC(=O)[C@H](CCCCN)NC(=O)[C@H](C)NC(=O)[C@@H](N)Cc1ccc(O)cc1)C(=O)N[C@@H](CCCCN)C(=O)N[C@@H](C)C(=O)O	Mapk1	enzyme activity, inhibitor, fluorescence	–	pH 7.4	IC50	14.3 µM
Cc1ncc([N+](=O)[O-])n1CC(O)Cn1cc(CO[C@]2(C(=O)O)C[C@H](O)[C@@H](NC(=O)CF)[C@H]([C@H](O)[C@H](O)CNC(=O)c3ccc(Oc4ccccc4)cc3)O2)nn1 (stereo partly drawn)	B-cell receptor CD22 (CD22, Homo sapiens, UniProt P20273)	ligand binding, inhibitor, competitive bead binding flow cytometry	–	with: 6'SLN(Gc)-PAA-biotin beads	IC50	0.25 ± 0.04 µM
Cc1[nH]c(C)c(S(=O)(=O)Nc2ccccc2)c1C(=O)N1CCCC1	DRD3	Go activation, antagonist, BRET	–	with: dopamine	IC50	> 100 µM
CCCCCCCCCCCCCCCCCC(=O)NC[C@H]1CC[C@H](C(=O)N[C@@H](CCC(=O)NCCCOCCOCCOCCCNC(=O)COCC(=O)N[C@@H](Cc2ccc(O)cc2)C(=O)NC(C)(Cc2ccccc2)C(=O)N[C@@H](CC(C)C)C(=O)N[C@@H](CCCC)C(=O)N[C@@H](CCCNC(=N)N)C(=O)N2CCC[C@H]2C(=O)N[C@@H](CCCNC(=N)NC)C(=O)N[C@@H](CC(N)=O)C(N)=O)C(=O)O)CC1 (stereo partly drawn)	Neuromedin-U receptor 2 (NMUR2, Homo sapiens, UniProt Q9GZQ4)	ligand displacement, radioligand	–	–	IC50	0.000891 µM
CC(C)C[C@H](NC(=O)[C@H]1O[C@@H]1C(=O)O)C(=O)NCCCCN=C(N)N	Papain (Carica papaya, UniProt P00784)	enzyme activity, inhibitor	–	–	IC50	0.000203 µM

SMILES	tested on	test	test system	conditions	endpoint	result
CCC(C(=O)Nc1ccccc1C)n1cccc2nc(SCc3ccc(F)cc3)nc1-2 (stereo not drawn)	Calpain-1 catalytic subunit (CAPN1, Homo sapiens, UniProt P07384)	enzyme activity	–	–	IC50	> 100 µM
CC(C)C[C@H](NC(=O)[C@H](CC(=O)O)NC(=O)[C@@H](N)CO)C(=O)N1CCC[C@H]1C(=O)N[C@@H](Cc1ccccc1)C(=O)N[C@H](CCC(=O)O)C(=O)N[C@@H](Cc1ccccc1)C(N)=O	Transcriptional regulator PlcR (Bacillus thuringiensis, UniProt A0ACM8Q0N2)	reporter gene, inhibitor, lacZ reporter	407 Cry−	1 h, phase, late exponential, added at	IC50	2.57 ± 0.343 µM
O=C(O)CCn1c(=O)oc2cc(Cl)c(Cl)cc21	Sodium channel protein type 5 subunit alpha (SCN5A, Homo sapiens, UniProt Q14524)	ion current, inhibitor	–	–	IC50	> 100 µM
O=C(CN1C(=O)C2(CCN(C(=O)c3cnc4[nH]ncc4c3)CC2)c2cccc(F)c21)NCC(F)(F)F	Epithelial discoidin domain-containing receptor 1 (DDR1, Homo sapiens, UniProt Q08345)	ligand displacement	–	–	IC50	15.2 µM
CC[C@H](C)[C@H](NC(=O)CNC(=O)[C@H](C)NC(=O)[C@H](CCSC)NC(=O)[C@H](CCCNC(=N)N)NC(=O)[C@H](CCCCN)NC(=O)[C@H](Cc1c[nH]c2ccccc12)NC(=O)[C@H](CO)NC(=O)[C@H](CC(C)C)NC(=O)[C@H](CS)NC(=O)[C@H](C)NC(=O)[C@@H](N)Cc1ccc(O)cc1)C(=O)N[C@@H](Cc1ccccc1)C(=O)N[C@@H](Cc1ccccc1)C(=O)N[C@@H](CC(C)C)C(=O)N1CCC[C@H]1C(=O)O	Mapk1	enzyme activity, inhibitor, fluorescence	–	pH 7.4	IC50	12.1 µM
CC1(C)NC(=O)N(c2ccc(F)c(C(C)(F)F)c2)C1=O	AR	reporter gene, antagonist	–	–	IC50	31 µM
CN1CCCCC1C(=O)NC(Cc1ccc(-c2ccccc2)cc1)B(O)O (stereo not drawn)	Proteasome subunit beta type-9 / Proteasome subunit beta type-10 (Homo sapiens, UniProt P28065+P40306)	β1i activity, inhibitor	–	immunoproteasome, with: Ac-PAL-AMC	IC50	> 10 µM
C=C1NC(=O)[C@H]([C@@H](C)O)NC(=O)[C@H](CSCC(N)=O)NC(=O)CNC(=O)[C@H](Cc2ccc(O)cc2)NC(=O)[C@H]([C@@H](C)O)NC(=O)[C@H](CCC(N)=O)NC(=O)[C@H](CO)NC(=O)CNC(=O)[C@H](CC(C)C)NC(=O)[C@H](Cc2c[nH]c3ccccc23)NC(=O)[C@H](Cc2c[nH]c3ccccc23)NC(=O)c2ccc(-c3nc(C(=O)OC)cs3)nc2-c2csc1n2	TRAF2 and NCK-interacting protein kinase (TNIK, Homo sapiens, UniProt Q9UKE5)	enzyme activity, inhibitor, ADP detection	–	–	IC50	4.6 µM
CC(C)C[C@H](NC(=O)[C@H](CCCCN)NC(=O)[C@H](CCCCN)NC(=O)[C@H](CCCCN)NC(=O)[C@H](CCCCN)NC(=O)[C@@H]1CCCN1C(=O)[C@H](CCCNC(=N)N)NC(=O)[C@H](Cc1ccccc1)NC(=O)[C@H](CCCCN)NC(=O)[C@H](CCCCN)NC(=O)[C@H](C)NC(=O)[C@@H](N)Cc1ccc(O)cc1)C(=O)N[C@@H](CCCNC(=N)N)C(=O)N[C@@H](CC(C)C)C(=O)N[C@@H](CC(N)=O)C(=O)N1CCC[C@H]1C(=O)O	Mapk1	enzyme activity, inhibitor, fluorescence	–	pH 7.4	IC50	19.6 µM
COC1c2cc(C(C)C)c(O)c(O)c2C23CCCC(C)(C)C2C1OC3=O (stereo not drawn)	BCHE	enzyme activity, inhibitor	–	–	IC50	0.00481 µM
O=C1NC2(CC2)COc2ncc(F)cc2[C@H]2COCCN2c2ccn3ncc1c3n2	–	–	Sprague-Dawley rat, male, serum	oral, 5 mg/kg/day, 4 weeks daily, end of recovery period	creatinine	25.2 ± 2.5 µmol/L
C[C@H](Oc1ccc(C(=O)c2ccc(F)cc2)cc1)C(=O)N1CCc2ccc(C(F)(F)F)cc21	Dihydroorotate dehydrogenase (quinone), mitochondrial (PFF0160c, Plasmodium falciparum, UniProt Q08210, E182D)	enzyme activity, inhibitor, absorbance	–	–	IC50	0.463 µM
CC(C)C[C@H](NC(=O)CNC(=O)[C@H](CCCNC(=N)N)NC(=O)[C@H](CCCNC(=N)N)NC(=O)[C@H](C)NC(=O)[C@H](CS)NC(=O)[C@H](CC(C)C)NC(=O)[C@H](C)NC(=O)[C@@H](N)Cc1ccc(O)cc1)C(=O)N[C@@H](Cc1ccc(O)cc1)C(=O)N[C@@H](CS)C(=O)N[C@@H](CC(C)C)C(=O)N[C@@H](CO)C(=O)N[C@@H](CC(C)C)C(=O)N[C@@H](CC(=O)O)C(=O)N[C@@H](Cc1c[nH]cn1)C(=O)O	Mapk1	enzyme activity, inhibitor, fluorescence	–	pH 7.4	IC50	47 µM
Cc1ccc(C2=CCC(C)(C)c3ccc(C(=O)Nc4ccc(C(=O)O)cc4)cc32)cc1	Retinoic acid receptor beta (RARB, Homo sapiens, UniProt P10826)	–	–	–	IC50	2.6 µM
CC(C)[C@H](NC(=O)[C@H](CCCCN)NC(=O)[C@@H](NC(=O)[C@H](Cc1ccc(O)cc1)NC(=O)[C@H](CC(N)=O)NC(=O)[C@H](CCCNC(=N)N)NC(=O)[C@H](CCC(=O)O)NC(=O)[C@H](Cc1c[nH]cn1)NC(=O)[C@H](CCCNC(=N)N)NC(=O)[C@@H](NC(=O)[C@H](C)NC(=O)[C@@H](N)Cc1ccc(O)cc1)[C@@H](C)O)[C@@H](C)O)C(=O)N[C@@H](CC(N)=O)C(=O)N[C@@H](Cc1ccccc1)C(=O)N[C@@H](CS)C(=O)N[C@@H](CCCCN)C(=O)O	Mapk1	enzyme activity, inhibitor, fluorescence	–	pH 7.4	IC50	> 200 µM
Cc1cc(-c2ccc3ccccc3c2)nnc1NCCN1CCN(C)CC1	Sodium-dependent dopamine transporter (Slc6a3, Rattus norvegicus, UniProt P23977)	transporter uptake, inhibitor	–	–	IC50	7.2 µM

For quick reference, copied from above:
SMILES	tested on	test	test system	conditions	endpoint	result
CC[C@H](C)[C@H](NC(=O)[C@H](Cc1ccccc1)NC(=O)[C@H](CC(C)C)NC(=O)[C@@H]1CCCN1C(=O)[C@H](CCC(=O)O)NC(=O)[C@@H]1CCCN1C(=O)[C@H](CCCNC(=N)N)NC(=O)[C@H](Cc1c[nH]cn1)NC(=O)[C@H](CCCNC(=N)N)NC(=O)[C@H](Cc1ccccc1)NC(=O)[C@H](CCCCN)NC(=O)[C@H](CCCCN)NC(=O)[C@H](C)NC(=O)[C@@H](N)Cc1ccc(O)cc1)C(=O)N1CCC[C@H]1C(=O)N1CCC[C@H]1C(=O)O	Mapk1	enzyme activity, inhibitor, fluorescence	–	pH 7.4	IC50	5.27 µM
O=S(=O)(F)c1cccc(S(=O)(=O)Nc2cc(F)c(C3CC3)cc2Cl)c1	GTPase KRas, with RAF (KRAS, Homo sapiens, UniProt P01116)	RAF-KRAS interaction, inhibitor, NanoBRET	HEK293T	24 h	IC50	37 ± 8 µM
O=C(O)CCn1c(=O)oc2cc(Cl)c(Cl)cc21	Sodium channel protein type 5 subunit alpha (SCN5A, Homo sapiens, UniProt Q14524)	ion current, inhibitor	–	–	IC50	> 100 µM
